Measurements from different studies.
Each numbered part is a random draw from the data of one study; scales do not carry over between parts.

Sample 1 — technique: protein binding microarray; molecule type: double-stranded DNA, one strand shown; matrix: in vitro; tested at: not given; baseline: not given; reading: higher = stronger binding
Target: Histone acetyltransferase KAT6A, winged helix 1, GST fusion (KAT6A, Homo sapiens, UniProt Q92794, residues 1-85)
Notes: 8-mer, flanks averaged, mean of 2 arrays, mostly near background
Residues (chain): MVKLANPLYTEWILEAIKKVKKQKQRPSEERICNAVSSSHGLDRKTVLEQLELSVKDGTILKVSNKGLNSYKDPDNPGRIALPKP
Strand	E-score
ACATCGAA	0.115
CAGAAGTC	-0.238
ACCATGAG	-0.00477
ACTTGGAC	0.0268
GGTTCTTA	-0.0753
ATTTCGAA	-0.229
AGACCGAG	-0.0106
AGCTAGAG	-0.0731
AGCCAATC	-0.182
CTATAAAG	-0.0766
TAATAACA	-0.0157
ATATACAT	-0.145
TACCAGTA	-0.171
ATGACAGA	-0.0884

Sample 2 — technique: RNA Bind-n-Seq; molecule type: RNA; matrix: in vitro; tested at: 365 nM; baseline: no-protein control; reading: higher = stronger binding
Target: RNA binding protein fox-1 homolog 2, RRM domain, GST-SBP tag (RBFOX2, Homo sapiens, UniProt O43251-10, residues 100-194)
Notes: natural RNA segment, single round, ends assumed
Shared flanks, not repeated: GGGAGUUCUACAGUCCGACGAUC … UGGAAUUCUCGGGUGCCAA
Construct (chain): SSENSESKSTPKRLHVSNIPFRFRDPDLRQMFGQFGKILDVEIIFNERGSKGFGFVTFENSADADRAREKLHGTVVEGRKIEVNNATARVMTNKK
Strand	RBNS enrichment (R)
CACAGUGGAGAGGCCGGAAGUGAGACGGGCAGACGGCACCUGCAGCCUGAAACGCACCGCUCCUGCGUGCGCCCCCACCUGGUCCCCGGAUGCCCCCACCACCUGGACAG	0.452
UGAUUUGAUUUCCUGCCCUGGUUUUGAAGGUCCAUUUUUUUCCCUUUUGCAUUGACUUGCUUGUUUCCCCUUUGAAACACCUAAAAAUACCUUUCCAAAACAUCGCGAGA	0.721
CAGCUUCUCUGAUGGGAAAGUUCCUUUUUUGGCUUAACACUCACCCUUUCUUCACACUCACAUUUACCAAUGACUCUGCUCCGUUUUUGGAGCAGACUGUUUUAAGUUGC	0.247
GCCUUGUUAUUACUAGGUUUUUUGAGAUUAAAAAAAAAAAAUCCCUGGUUUAAAACCAACAAUGAUGCCUAGUGAGUAUGUGUCCACAGGCCAUAACAGGGUAGAAGAGA	0.691
CCCUGGGAGUCAGACCAGGGACUCCUCAGGGAGUGAAAUGUGCUUCAGGACACACAGGACUCGAGCCAAGCUCCUGAUCCAGUCACACCCCACCCCCGACUCCCCUGCCU	0.243
UUAUAAAAUGCUAGUAAUUUAGAACCCUCCCCCCAAAUCAAGGAGGCAAAAAAUAACGCACUAGUCACUGAAGUUCAUCCUCAGUUACCUCGAUAGGGUAGGUAGAUUCC	0.27
AAGAGAGAGUGAGAGUGUGUGUGUAUAUGUGUGUGUGUGUGCAAUCAAACUGUGGUGUAAAUAGAUCCUCAGUGAAUUCUGGUAUUCAGACUCUGUUCCACUAGUGAAUG	1.09
UAUGUGGAGGACAUGUUCCCAUGGAUCAUAUGUGAAGAUGUCAAUAAGCUUGCAUUAAGCCACCUGCUUUGUAAGUGGAUUGAUUAAUAAAUAACUUAUAUUUCUAUUGU	0.359
UAUAACAGAACCUUCUGUAUAGGUUCUGGCAAUCAAGAGAUGUAUAAUAAAACAUAGCUUACGUGAACUCGGUGUCCUCCAUCCUUCAGGGAGCCAGGGGGCUGUGGGAC	0.236

Sample 3 — technique: protein-binding microarray; molecule type: double-stranded DNA, one strand shown; matrix: in vitro; tested at: 940 nM top; notes: 60-bp whole probe; together with: salmon DNA 0.4 mg/ml; baseline: random background probes; reading: higher = stronger binding; shared flanks, not repeated: GCCTAGCAC … GTCTTGATTCGCTTGACGCTGCTG
Target: Interferon regulatory factor 5, full length, phosphomimetic (IRF5, Homo sapiens, UniProt Q13568-2, residues 1-514, S451D/S453D/S456D/S462D)
Strand	fitted relative affinity [z-score]
CAGAGCATGGATCTGGGAACGTGCTAG	-0.85
TTTTCTCTCCCATTCTGAATGTGCTAG	1.86
TTAGGACAGGGTTTCGGTTAGTGCTAG	5.25
GACGATTTCGGGACTAGAGACGTGCTA	-0.0473
TCATCCATGTGTTTAAAACTGTGCTAG	-0.0484
TTAGGTATGGACTATCGGTTAGTGCTA	-0.00308
GACGGTCTCGGGCTCGGGACGTGCTAG	1.03
TCTCTTTTTGCTTTCTTTATGTGCTAG	4.88
TTAGGTTTCAGTTTCGGTTAGTGCTAG	11.5
TTAGGTTCAGGTTTCGGTTAGTGCTAG	7.6
GACGGACTGGGGTTTCGGTACGTGCTA	4.94
TTAGGACTGGGACTGGGTAAGTGCTAG	-0.548
TTAGGTTTCGGGTACCGGTTAGTGCTA	10.6
TCAATTTGGCATATCTAACTGTGCTAG	0.0643

Sample 4 — technique: Sort-seq; refers to: YFP reporter; matrix: E. coli; notes: PhoQ-PhoP variant library; together with: 10 µM Mg2+; baseline: high Mg2+ state; reading: higher = stronger signaling
Molecule: PhoQ, residues 284 288 289 292 302 303 NLGVHL
target	fold induction
PhoP, residues 12 14 15 18 19 NFFVT (Escherichia coli, UniProt P23836)	5.13
PhoP, residues 12 14 15 18 19 LHHYF (Escherichia coli, UniProt P23836)	0.147
PhoP, residues 12 14 15 18 19 TPWTL (Escherichia coli, UniProt P23836)	7.14
PhoP, residues 12 14 15 18 19 VGHWL (Escherichia coli, UniProt P23836)	1.87

Some of these lines once more (sample 1):
Strand	E-score
ATTTCGAA	-0.229
ACATCGAA	0.115
ACCATGAG	-0.00477
AGCCAATC	-0.182
CAGAAGTC	-0.238
AGACCGAG	-0.0106
